{"data": "Measurements of several laboratories", "note": "A part holds a random share of what one study measured. Values joined by “and” are separate records of one study, mostly repeats; a detail may differ. Changes are numbered by the printed parent chain.", "chain of UniProt P51451 (whole entry, looked up)": "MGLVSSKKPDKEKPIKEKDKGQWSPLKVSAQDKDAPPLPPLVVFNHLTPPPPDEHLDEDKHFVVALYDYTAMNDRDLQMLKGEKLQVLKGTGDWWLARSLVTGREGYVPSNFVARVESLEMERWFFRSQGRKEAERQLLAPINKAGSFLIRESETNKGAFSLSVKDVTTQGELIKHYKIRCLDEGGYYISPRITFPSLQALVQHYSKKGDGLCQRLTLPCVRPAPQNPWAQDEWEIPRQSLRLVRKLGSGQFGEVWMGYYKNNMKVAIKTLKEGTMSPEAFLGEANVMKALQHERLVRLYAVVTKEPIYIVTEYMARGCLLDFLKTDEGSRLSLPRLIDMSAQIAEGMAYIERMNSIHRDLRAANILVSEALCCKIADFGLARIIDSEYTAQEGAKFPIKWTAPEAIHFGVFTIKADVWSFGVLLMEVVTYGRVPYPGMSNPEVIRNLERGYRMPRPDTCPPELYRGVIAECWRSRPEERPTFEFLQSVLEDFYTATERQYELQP", "chain of UniProt O43293 (whole entry, looked up)": "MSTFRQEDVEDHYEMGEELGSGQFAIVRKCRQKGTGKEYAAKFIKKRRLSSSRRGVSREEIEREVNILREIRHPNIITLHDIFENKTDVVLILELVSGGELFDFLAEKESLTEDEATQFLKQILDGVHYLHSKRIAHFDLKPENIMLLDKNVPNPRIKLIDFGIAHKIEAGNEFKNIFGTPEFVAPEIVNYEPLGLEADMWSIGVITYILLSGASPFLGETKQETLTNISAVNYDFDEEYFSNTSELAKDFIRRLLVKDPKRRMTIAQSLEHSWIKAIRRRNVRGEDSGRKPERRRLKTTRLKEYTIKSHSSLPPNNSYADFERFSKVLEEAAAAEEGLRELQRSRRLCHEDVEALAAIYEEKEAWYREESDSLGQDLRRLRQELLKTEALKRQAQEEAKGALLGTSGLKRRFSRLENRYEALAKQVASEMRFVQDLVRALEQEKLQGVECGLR", "chain of UniProt Q9NQU5 (whole entry, looked up)": "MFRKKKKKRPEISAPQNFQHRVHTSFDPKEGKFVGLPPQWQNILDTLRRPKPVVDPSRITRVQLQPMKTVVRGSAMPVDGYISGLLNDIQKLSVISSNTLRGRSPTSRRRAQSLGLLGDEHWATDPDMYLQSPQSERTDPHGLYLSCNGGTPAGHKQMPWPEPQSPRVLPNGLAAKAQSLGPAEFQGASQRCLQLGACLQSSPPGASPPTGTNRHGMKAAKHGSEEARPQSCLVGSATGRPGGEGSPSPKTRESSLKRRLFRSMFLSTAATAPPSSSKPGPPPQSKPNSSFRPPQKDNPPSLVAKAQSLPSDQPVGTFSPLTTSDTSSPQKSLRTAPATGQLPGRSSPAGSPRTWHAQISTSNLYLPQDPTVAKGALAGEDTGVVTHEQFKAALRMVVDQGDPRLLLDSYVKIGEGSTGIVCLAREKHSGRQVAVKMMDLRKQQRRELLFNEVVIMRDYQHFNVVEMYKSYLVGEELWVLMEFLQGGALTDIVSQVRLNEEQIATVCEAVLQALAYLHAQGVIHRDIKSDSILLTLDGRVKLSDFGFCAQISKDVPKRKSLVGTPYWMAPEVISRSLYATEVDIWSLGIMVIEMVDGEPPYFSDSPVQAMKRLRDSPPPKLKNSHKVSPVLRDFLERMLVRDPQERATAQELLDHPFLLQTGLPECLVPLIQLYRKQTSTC"}
{"data": "Series 1", "target": "CCNF, cyclin fold, Cln2 fusion (human)", "technique": "yeast growth competition, sequencing", "medium": "yeast", "notes": "strong parent motif", "relative to": "not given", "direction": "higher = stronger binding", "starting sequence": "viral docking peptide; YKVKRRLVFGADD"}
{"Change": "YKVKRRLVFLADD [G10L]", "normalised enrichment score": 8.38}
{"Change": "YKVKRRLPFGADD [V8P]", "normalised enrichment score": 6.65}
{"Change": "YKVKRPLVFGADD [R6P]", "normalised enrichment score": 6.68}
{"Change": "YKVKIRLVFGADD [R5I]", "normalised enrichment score": 3.66}
{"Change": "YPVKRRLVFGADD [K2P]", "normalised enrichment score": 7.44}
{"Change": "YKKKRRLVFGADD [V3K]", "normalised enrichment score": 4.29}
{"Change": "YKVKRRLVFGAND [D12N]", "normalised enrichment score": 9.19}
{"Change": "YKVKRRLVFGRDD [A11R]", "normalised enrichment score": 9.13}
{"data": "Series 2", "Compound": "Cn1cncc1[C@@](O)(COc1ccc(C#N)cc1-c1ccc(OC(F)(F)F)cc1)c1ccc(C#N)cc1", "observed": "cell-free assay", "technique": "competition with immobilised ligand", "concentration": "1 µM"}
{"target": "BLK (Homo sapiens, UniProt P51451)", "remaining binding [%]": 71}
{"target": "PAK6 (Homo sapiens, UniProt Q9NQU5)", "remaining binding [%]": 100}
{"target": "DAPK3 (Homo sapiens, UniProt O43293)", "remaining binding [%]": 100}
{"data": "Series 3", "target": "HLA class I histocompatibility antigen, C alpha chain, allele C*04:01 (Homo sapiens, UniProt P10321)", "observed": "peptide-MHC binding", "form": "peptide", "concentration": "concentration not given"}
{"Molecule": "YTFFFTQYF", "binding": "inactive"}
{"Molecule": "YLRNAGAAM", "binding": "inactive"}
{"Molecule": "KQLELFWVI", "binding": "inactive"}
{"Molecule": "YRWVNLASF", "binding": "inactive"}
{"Molecule": "RPRVAQLTF", "binding": "inactive"}
{"Molecule": "YYNAFHWAI", "binding": "inactive"}
{"Molecule": "LVTMGTGTFGR", "binding": "inactive"}
{"Molecule": "LMYPTTLLK", "binding": "inactive"}
{"data": "Single results of other studies", "technique": "CCK-8"}
{"Structure (SMILES)": "CC(C)S(=O)(=O)c1ccc2nccc(Nc3ccc4sc(C5CCCC5)nc4c3)c2c1", "cell line": "L929", "assay": "necroptosis protection", "setting": "0.313 µM, added: TNF-α plus zVAD", "viability": "34.3%"}
{"Structure (SMILES)": "N#Cc1c(Oc2ccc(F)c(NC(=O)Cc3cccc(C(F)(F)F)c3)c2)ccc2nc(NC(=O)C3CC3)sc12", "cell line": "L929", "assay": "necroptosis protection", "setting": "5 µM, added: TNF-α-induced", "viability": "66.9%"}
{"Structure (SMILES)": "CC[C@H](C)c1nc2cc(Nc3ccnc4ccc(S(=O)(=O)C(C)C)cc34)ccc2s1.Cl", "cell line": "HT-29", "assay": "necroptosis protection", "setting": "0.625 µM, added: TNF-α SMAC mimetic zVAD", "viability": "13.1% and 19.8% and 25.2% and 25.1% and 20.7%"}
{"Structure (SMILES)": "Cc1ccc(O)cc1Nc1ccnc2cc(-c3ccccn3)ccc12", "cell line": "L929", "setting": "3.125 µM, added: zVAD", "viability": "49.5% and 51.3% and 62.3% and 60.5%"}
{"note": "Some of these lines once more (series 2):"}
{"target": "BLK (Homo sapiens, UniProt P51451)", "remaining binding [%]": 71}
{"target": "DAPK3 (Homo sapiens, UniProt O43293)", "remaining binding [%]": 100}
{"target": "PAK6 (Homo sapiens, UniProt Q9NQU5)", "remaining binding [%]": 100}
